Published values of several laboratories.
Parts stem from different laboratories: compare values within a part only.

Block 1
Target: RING finger protein unkempt homolog, zinc fingers 1-6, GST-SBP tag (UNK, Homo sapiens, UniProt Q9C0B0, residues 30-357)
Method: RNA Bind-n-Seq
Form: RNA
Matrix: in vitro
Concentration: not given
Setting: RNA with constant flanks, human-mouse chimeric sites, ends assumed
Baseline: input RNA pool
Direction: higher = stronger binding
Construct (chain): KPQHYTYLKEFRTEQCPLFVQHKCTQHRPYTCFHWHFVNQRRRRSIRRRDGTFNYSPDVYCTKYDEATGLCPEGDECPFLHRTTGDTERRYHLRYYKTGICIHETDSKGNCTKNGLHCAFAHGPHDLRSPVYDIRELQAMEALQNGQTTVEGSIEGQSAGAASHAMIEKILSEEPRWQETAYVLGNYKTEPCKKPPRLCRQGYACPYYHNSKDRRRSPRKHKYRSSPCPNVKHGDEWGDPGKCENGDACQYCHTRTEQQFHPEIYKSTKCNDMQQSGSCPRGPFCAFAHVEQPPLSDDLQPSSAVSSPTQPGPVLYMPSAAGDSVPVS
Sequence	bound/input enrichment [ratio]
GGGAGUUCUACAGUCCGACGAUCAGGAGGAGGUUAAAGGGUGAGAGUGGGAUGGAGGAUUGUGUCAUGGCCCUAGAAACCCUGUUCAGUGUCCUGCUUUCUCUGUGCAGACUGAUGGCCCCUUACACGCCCUUUCUGACUGAGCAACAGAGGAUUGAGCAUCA	0.0848
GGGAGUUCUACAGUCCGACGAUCUUGAAAAACACAGAUAUCAAAGUUGUUGACUUUGGAAGUGCAACGUAUGAUGAUGAACAUCACAGUACUUUGGUGUCUACCCGGCACUACAGGGCUCCCGAGGUCAUUUUGGCUUUAGGUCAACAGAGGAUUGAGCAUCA	0.422
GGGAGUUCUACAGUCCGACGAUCACUCAGAGAUCCACCUCCCAAAGUGCUGGGAGUAAAGUCUGAUAUUACACACCUAACUUGAUGGAUAUAUAUUUUUUUUAAUAUGAAUCUUCCUGUUCUUCAUCCAGAGAAAGAUUUGUUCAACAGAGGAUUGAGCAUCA	0.589
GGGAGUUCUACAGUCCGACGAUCUUGCUACUGACUCCCUGGGUCAAGUUCCUGUGGGAAUCUUACAGGCAGUGUUUGGACCUUCUUAGAAACAAUUCUAGAGUAGAGCGCCUUUACCAUGAUAUCGCCCAACAAGCUUUCAAACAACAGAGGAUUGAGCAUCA	0.257
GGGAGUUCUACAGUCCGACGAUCACCAUUUUCGCGGUUCAAGGUUUUGUGGUAGUUCACUCUAUGUAUUAAAUUAUUAUUCUGCUUAGCUUAUAAUAAGGAUAAUUGCAUUUAAAGAGGUUACUGAAUGUUACUCUGAAACUUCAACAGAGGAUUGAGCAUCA	0.366
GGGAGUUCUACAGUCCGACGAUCCGCUUGGAUGAGGCGGGUGUCACAGAUGAAGUGCUAGAUUCUGCCAUGCAAGCCUUCUUACUAGAAAUCAUUGUUAAGCAUGGGGAGCCGGCACCUUAUUUAUGUAACAAAGAUCCGUUUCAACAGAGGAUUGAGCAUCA	0.2
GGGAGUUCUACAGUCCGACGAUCCUGAGGAUACCACUGAAGAGACCUUAAAAGAAUCAUUUGAGGGCUCUGUUCGUGCAAGAAUAGUCACCUGACCGGGAACUGGUUCUUCCAAAGGGUUUUGGUUUUGUGACUUUAAUAGUGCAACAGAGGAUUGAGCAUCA	0.467
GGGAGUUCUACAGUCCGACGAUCAUGGUUGUGUCUCUUGAGAUCUAAAAACAAGAUGACUUUUCCUGGCACAUAUUCCAAAGCAAAGACUUUGUUACCUGCUGCUUAUUGUCUAAUUUACAGGGAUAUUUAAUUUUGUCAGGUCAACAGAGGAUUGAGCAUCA	0.194

Block 2
Target: Phosphate system positive regulatory protein PHO4, full length, GST-tagged (PHO4, Saccharomyces cerevisiae, UniProt P07270, residues 1-312)
Method: competition protein-binding microarray
Form: double-stranded DNA, one strand shown
Matrix: in vitro
Concentration: 2 µM
Setting: whole 60-bp probe, lowest competitor level
Together with: Cbf1 competitor, 0.05 µM
Direction: higher = stronger binding
Construct (chain): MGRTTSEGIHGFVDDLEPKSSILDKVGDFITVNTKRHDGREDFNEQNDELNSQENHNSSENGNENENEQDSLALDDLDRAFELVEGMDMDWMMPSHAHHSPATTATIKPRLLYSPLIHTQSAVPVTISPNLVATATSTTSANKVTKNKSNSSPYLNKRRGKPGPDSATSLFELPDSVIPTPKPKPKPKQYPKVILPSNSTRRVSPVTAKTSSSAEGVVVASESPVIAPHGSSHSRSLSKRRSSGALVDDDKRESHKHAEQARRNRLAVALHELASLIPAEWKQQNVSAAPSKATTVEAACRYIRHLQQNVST
Sequence	fluorescence intensity [a.u.]
TATACTTTCCCTACGCACATGAAACGCATACCCCAAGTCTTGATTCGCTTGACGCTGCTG	7410
GTCTTAACTTCCTGGCACGATTCTGCTTATATTTATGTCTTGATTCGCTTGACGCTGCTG	9400
CGATACCGTAACCACCATGTGGGCAAGTACCGTATTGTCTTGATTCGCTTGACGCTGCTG	11300
CATACCCAACCTTGGTCTGTGGGTGAAGATATTTGTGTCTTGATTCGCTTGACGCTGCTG	4300
ACAATGTTTCAACTTCGCGTGCTGTTAAAAAAGTACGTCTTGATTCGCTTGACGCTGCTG	8090
TGAACACCCATCCATCACGTGTAATTGGACATCCGGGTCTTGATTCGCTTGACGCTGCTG	16300
GTTCCATTCACCGTTGTAATGTGCAGCCCCGTCCTAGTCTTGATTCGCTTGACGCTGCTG	4370
GATACGCTCCTTGGCCTCGTGGTGATGCGCCAAAACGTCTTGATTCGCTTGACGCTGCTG	9990
GAAGAAAAACCGATGCACGTGACTCGTTAGTCAAAAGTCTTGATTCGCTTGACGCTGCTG	16000
ACACTGAATCCGGGCAACGTGTCCAGAACTTGCATTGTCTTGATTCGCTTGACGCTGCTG	13200
CTTTCCCGATCTTGTGCGGTGGGTGTAGCACATTTGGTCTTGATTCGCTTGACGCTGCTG	6120
CTTATCCGAAGTTGAAATGTGACGGCTGCAATGGATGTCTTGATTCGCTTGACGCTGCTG	5270
AATTTCCGGCTTCTTCACGTTATGCACCATCACCTTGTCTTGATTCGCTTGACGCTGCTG	4440
GTCTTGTCTCATTGAGTTGTGGGTGTCCCCACTTCAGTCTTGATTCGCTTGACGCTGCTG	4730
AAAAGTTTTGAAAAACACGTGCCGATGATTTTTTGTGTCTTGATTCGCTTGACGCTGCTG	17600
ATTGGGATAACCAGGCACACGCTAATGCGAGATAGCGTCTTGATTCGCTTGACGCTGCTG	7390
ATCAACAATTTGTTCCACGTGCGATAAAATGTCGTTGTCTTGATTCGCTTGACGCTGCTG	18500
CGGCCGGGTGAAAAGCACGTCGTTTAGGGGGGACCCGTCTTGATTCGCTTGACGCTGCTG	5140
TGCGTTAAAACGGCCAATGTGACAGTAGTTCACTCGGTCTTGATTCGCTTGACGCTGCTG	4150

Block 3
Target: Ras GTPase-activating protein-binding protein 1, RRM domain (G3BP1, Homo sapiens, UniProt Q13283)
UniProt Q13283, sequence (whole entry, looked up): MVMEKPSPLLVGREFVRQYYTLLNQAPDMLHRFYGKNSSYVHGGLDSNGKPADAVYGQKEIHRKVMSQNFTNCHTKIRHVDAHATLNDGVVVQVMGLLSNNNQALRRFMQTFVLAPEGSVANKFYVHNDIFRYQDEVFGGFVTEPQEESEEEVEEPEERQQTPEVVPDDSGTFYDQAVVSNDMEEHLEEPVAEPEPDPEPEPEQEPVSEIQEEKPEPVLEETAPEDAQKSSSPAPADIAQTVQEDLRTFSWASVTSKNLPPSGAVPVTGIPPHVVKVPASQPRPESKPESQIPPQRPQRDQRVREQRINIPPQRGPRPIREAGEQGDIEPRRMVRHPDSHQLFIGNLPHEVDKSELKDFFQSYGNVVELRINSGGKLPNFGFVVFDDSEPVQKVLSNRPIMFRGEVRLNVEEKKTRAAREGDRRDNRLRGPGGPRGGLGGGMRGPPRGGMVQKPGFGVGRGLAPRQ
Method: RNA Bind-n-Seq
Form: RNA
Matrix: in vitro
Concentration: 1 µM
Setting: whole 134-nt RNA, ends assumed
Together with: 150 mM KCl
Baseline: input library
Direction: higher = stronger binding
Sequence	log2 enrichment
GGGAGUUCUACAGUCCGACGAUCUCCUGUGCUACACAUCGUAUGUACCGAAUCAAAUUUUUUUAAACCCCCAAAUUUUUAAAAAAGUAUUAUGUUACGCCGUUCGGAUCUGCAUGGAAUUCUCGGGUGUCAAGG	-0.609
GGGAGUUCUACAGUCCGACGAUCCCUGUGCUACACAUCGUAUGUACCGAAUCGGGGUUUUUGGGGUUUUUGGGGAAAAAGGGGAAAGUAUUAUGUUACGCCGUUCGGAUCUGCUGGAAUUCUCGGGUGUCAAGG	0.636
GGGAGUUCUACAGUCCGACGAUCUCCUGUGCUACACAUCGUAUGUACCGAAUCGGUUUUUUGGGGUUUUUUGGGUUUUUUGGGAAAGUAUUAUGUUACGCCGUUCGGAUCUGCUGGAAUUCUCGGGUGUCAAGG	-0.0788
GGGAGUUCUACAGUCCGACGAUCAGUCCUGUGCUACACAUCGUAUGUACCGAAUCGGGAAAGGGAAAAAAAGGGUUUGGGAAAGUAUUAUGUUACGCCGUUCGGAUCUGCACUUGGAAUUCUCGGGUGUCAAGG	0.247
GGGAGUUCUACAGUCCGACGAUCUGGAGCCCAACCUGUGCCGCUCAGUCCUCAUUGCCAACACGGUCCGGCAGAUCCAAGAGGAGAUGACGCAGGAUGGGACGUGGCGCACAGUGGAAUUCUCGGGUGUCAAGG	-0.527
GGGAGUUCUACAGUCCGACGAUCUGGAAGGAACGAGCCAGGAAGAGGGACUGGAACCAUCUCAGAAGCCAUGCCCCUCAGGCUGGAACUUGCCCUGUCUCCUCGCAGAUGAGGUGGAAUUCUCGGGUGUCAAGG	-0.592
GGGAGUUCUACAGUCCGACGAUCCCUGUGCUACACAUCGUAUGUACCGAAUCGGGAAAAAAGGGAAAAAAGGGAAAAAAGGGGAAAGUAUUAUGUUACGCCGUUCGGAUCUGCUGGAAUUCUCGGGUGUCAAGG	0.0083
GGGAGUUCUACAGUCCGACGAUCUGAAAAUUCUCGACUGGCUGCUGAGGUUUACAAAGACAUGCCGGAAACCAGCUUUACUCGAACCAUUUCUAAUCCUGAGGUGGUUAUGAAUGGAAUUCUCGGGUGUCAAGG	-0.197
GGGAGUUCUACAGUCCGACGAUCAUAGAUUGCGCAGUCUCUUUGUGGAGAGGACUUGAUCAUUAAAGGAAUCAGCGUUCAUAUAUCCAAUGCCGAACCUAAGCACAAUAGCAAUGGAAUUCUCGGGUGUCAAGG	-0.0037

Block 4
Target: Sal-like protein 4, full length isoform B (SALL4, Homo sapiens, UniProt Q9UJQ4-2, residues 1-616)
Method: universal PBM
Form: double-stranded DNA, one strand shown
Matrix: in vitro
Concentration: not given
Setting: 8-mer, flanks averaged, mean of replicates
Direction: higher = stronger binding
Residues (chain): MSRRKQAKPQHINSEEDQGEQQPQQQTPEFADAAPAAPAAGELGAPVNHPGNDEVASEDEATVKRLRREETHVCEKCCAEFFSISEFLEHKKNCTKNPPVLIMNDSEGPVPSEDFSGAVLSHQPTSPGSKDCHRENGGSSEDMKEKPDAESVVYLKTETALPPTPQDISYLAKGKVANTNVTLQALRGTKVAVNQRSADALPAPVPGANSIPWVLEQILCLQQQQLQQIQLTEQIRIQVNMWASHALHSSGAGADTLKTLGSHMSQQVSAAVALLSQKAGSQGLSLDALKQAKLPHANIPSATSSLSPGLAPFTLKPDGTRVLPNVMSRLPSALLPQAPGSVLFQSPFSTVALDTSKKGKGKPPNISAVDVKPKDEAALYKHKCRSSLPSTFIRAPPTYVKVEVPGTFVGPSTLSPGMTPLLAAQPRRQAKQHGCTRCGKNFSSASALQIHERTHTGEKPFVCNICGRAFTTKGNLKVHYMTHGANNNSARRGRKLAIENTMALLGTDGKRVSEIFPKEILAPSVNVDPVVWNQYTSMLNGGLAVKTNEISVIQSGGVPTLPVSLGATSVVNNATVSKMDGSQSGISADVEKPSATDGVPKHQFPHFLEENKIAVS
Sequence	E-score
TGGTCAAA	0.0429
TACAGAGA	0.00735
CCAGCAGA	-0.0935
ACACACCG	-0.118
CTCCAAGC	-0.165
CAGATTAA	0.194
ATAAGGGC	0.0956
GCGCGGCA	-0.254
CGGCTTTA	-0.00444
GAAGAGAA	0.164
CCCGTAAC	-0.105
GCCATGCC	-0.0939
CTAAGTAA	0.147
GCTAGGAC	-0.0496
AAAGAATT	0.204
CACAACGA	0.145
AGAGAGCC	-0.225
CCACATCA	0.00286
AAACTCTC	-0.0485
GGCAAATA	0.201
AAAGATGA	0.181
GTAAGCAC	-0.0488
GTCGGGGA	-0.269
GCCCGCGA	-0.315
AAAGCGTG	-0.0865

Some of these lines once more (block 4):
Sequence	E-score
GCTAGGAC	-0.0496
AAAGCGTG	-0.0865
CCCGTAAC	-0.105
GTAAGCAC	-0.0488
AAAGATGA	0.181
TGGTCAAA	0.0429
ATAAGGGC	0.0956
